Measured values gathered from unrelated publications.
Numbered parts are unrelated; each lists some results of a single study. Changes are numbered by the printed parent chain.

Block 1 — technique: universal PBM; molecule type: double-stranded DNA, one strand shown; matrix: in vitro; concentration: not given; reading: higher = stronger binding
Target: Sal-like protein 4, full length isoform B (SALL4, Homo sapiens, UniProt Q9UJQ4-2, residues 1-616)
Setting: 8-mer, flanks averaged, mean of replicates
| Strand | E-score |
| --- | --- |
| CCCGGCGC | -0.406 |
| GGTCCGTA | -0.195 |
| CCAGGGAA | -0.253 |
| GCCCCTGA | -0.22 |
| GCTTATCA | 0.0398 |
| AGGCCTAG | -0.143 |
| CATCGATG | 0.167 |
| GGCATGAC | -0.185 |
| CTGTGATA | 0.139 |
| GATCTCAA | -2e-05 |
| CTGAGAAA | -0.0869 |
| ATGATTCA | 0.199 |
| GCATCCCC | -0.157 |
| ACCGTCAG | -0.145 |
| CAGCTAAC | -0.117 |
| CCTTAACC | -0.138 |
| GGACTGCC | -0.244 |
| ACTACGTG | -0.163 |
| CTGCGGTA | -0.00772 |
| AATTCTTG | 0.197 |
| CCTATTCG | -0.0324 |
| GTCCTACA | -0.00077 |
| CTGATTAC | 0.0839 |
| GACGCTGC | -0.261 |
| TAGGACCA | -0.0717 |

Block 2 — technique: RNA Bind-n-Seq; molecule type: RNA; matrix: in vitro; concentration: 200 nM; setting: whole 134-nt RNA, ends assumed; together with: 150 mM KCl; reference: input library; reading: higher = stronger binding
Target: Fragile X messenger ribonucleoprotein 1, C-terminal low-complexity region (Fmr1, Mus musculus, UniProt P35922)
Shared flanks, not repeated: GGGAGUUCUACAGUCCGACGAUC … UGGAAUUCUCGGGUGUCAAGG
| Strand | log2 enrichment |
| --- | --- |
| CACAGACAACACGCACCCUCACAGACACAGAGGGAAGGGGUUGGGAUGGGGACAGGGUGCACAGCAGGGCGGGGUAGGACCCCAGCCCCU | 1.37 |
| CAAGUCCUGUGCUACACAUCGUAUGUACCGAAUCGGGUUUUUUUGGGAGGGAGGGAAAGUAUUAUGUUACGCCGUUCGGAUCUGCACUUC | 0.995 |
| CAAGUCCUGUGCUACACAUCGUAUGUACCGAAUCGGUUUUUGGAAAGGUUUUUGGAAAGUAUUAUGUUACGCCGUUCGGAUCUGCACUUC | -0.811 |
| UGGGAGGUGGAUUUUGUUUAUUUUUUUAGCUCAUUUCCAGGGAUGGGAAUUUUUUUUUAAUAUGUGUCAUGAAUAAAGUUGUUUUUGAAA | 0.0193 |
| CAAGUCCUGUGCUACACAUCGUAUGUACCGAAUCGGGGAGGGGAAAGGGGAGGGGAAAGUAUUAUGUUACGCCGUUCGGAUCUGCACUUC | 1.15 |
| GUCCUGUGCUACACAUCGUAUGUACCGAAUCGGGUUUUUGGGUUUUUGGGAAAAAGGGAAAGUAUUAUGUUACGCCGUUCGGAUCUGCAC | -0.235 |
| AGUCCUGUGCUACACAUCGUAUGUACCGAAUCGGUUUUUGGUUUUUGGUUUUUGGGGAAAGUAUUAUGUUACGCCGUUCGGAUCUGCACU | -0.581 |
| AAGUCCUGUGCUACACAUCGUAUGUACCGAAUCGGAAAAAAAGGUUUUUUUGGUGGAAAGUAUUAUGUUACGCCGUUCGGAUCUGCACUU | -1.09 |
| ACCAUGCAGGUGGGCAUCUUUGGGAAGUGGGGCAAGGGGGGAAAAGGGAGGGGGGUAACACUUUGGGAACAGGUGGUCCCAGGUCGUUUC | 0.587 |
| CUCAAGUCCUGUGCUACACAUCGUAUGUACCGAAUCGGUUUUUGGAGGAAAGGAAAGUAUUAUGUUACGCCGUUCGGAUCUGCACUUCCA | -0.253 |
| ACCAUGCAGGUGGGCAUCUUUGGGAAGUGGGGCAAGCGGGGGAUAGGGAGGGGGGUAACACUUUGGGAACAGGUGGUCCCAGGUCGUUUC | 0.873 |
| AGUCCUGUGCUACACAUCGUAUGUACCGAAUCGGCCCCCGGCCCCCGGGGCCCCCGGAAAGUAUUAUGUUACGCCGUUCGGAUCUGCACU | -0.824 |
| UGUGCUACACAUCGUAUGUACCGAAUCGGGGAAAAAAAGGGGAAAAAAAGGAAAAAAAGGGGAAAGUAUUAUGUUACGCCGUUCGGAUCU | -0.0854 |
| CAAGUCCUGUGCUACACAUCGUAUGUACCGAAUCGGGAGGGUUUGGGAAAAAGGGAAAGUAUUAUGUUACGCCGUUCGGAUCUGCACUUC | 0.78 |

Block 3 — technique: aptamer microarray, sandwich; molecule type: DNA with 2'F-ANA; matrix: in vitro; concentration: 200 nM; together with: Cy3 exosite-II aptamer, 400 nM; reading: higher = stronger binding; strand: GGTTGGTGTGGTTGG
Target: Prothrombin, mature alpha-thrombin (F2, Homo sapiens, UniProt P00734)
Setting: whole 15-mer aptamer, many near background
| Modification | mean fluorescence intensity [a.u.] |
| --- | --- |
| 2'F-ANA at 3 4 5 10 | 53.5 |
| 2'F-ANA at 1 3 5 6 9 10 12 13 | 50.3 |
| 2'F-ANA at 4 6 7 8 9 11 12 13 14 15 | 87.1 |
| 2'F-ANA at 3 4 5 8 9 10 13 14 | 73.3 |
| 2'F-ANA at 1 2 3 5 7 8 11 12 13 14 15 | 49.2 |
| 2'F-ANA at 1 2 5 6 7 13 14 | 47 |
| 2'F-ANA at 1 2 3 4 5 7 9 13 14 | 44.8 |
| 2'F-ANA at 1 2 4 5 7 9 14 | 48 |
| 2'F-ANA at 1 4 6 9 10 12 15 | 56.3 |
| 2'F-ANA at 2 4 6 7 12 13 | 385 |
| 2'F-ANA at 2 4 5 6 7 8 10 12 14 | 46.1 |
| 2'F-ANA at 4 5 6 7 8 9 12 14 15 | 49.9 |
| 2'F-ANA at 1 2 3 4 5 8 9 10 11 12 13 | 54.4 |
| 2'F-ANA at 2 5 6 7 9 10 11 12 13 14 15 | 54.1 |
| 2'F-ANA at 1 3 4 5 9 11 12 14 | 48.8 |
| 2'F-ANA at 2 3 5 6 8 10 | 55.1 |
| 2'F-ANA at 1 2 4 5 6 8 10 13 | 62.9 |
| 2'F-ANA at 2 3 5 7 9 14 15 | 54.3 |
| 2'F-ANA at 4 7 8 10 15 | 103 |
| 2'F-ANA at 3 4 5 6 12 | 218 |
| 2'F-ANA at 3 4 5 10 13 15 | 66.9 |

Block 4 — technique: protein binding microarray; molecule type: double-stranded DNA, one strand shown; matrix: in vitro; concentration: not given; reference: not given; reading: higher = stronger binding
Target: Histone acetyltransferase KAT6A, winged helix 1, GST fusion (KAT6A, Homo sapiens, UniProt Q92794, residues 1-85)
Setting: 8-mer, flanks averaged, mean of 2 arrays, mostly near background
Construct (chain): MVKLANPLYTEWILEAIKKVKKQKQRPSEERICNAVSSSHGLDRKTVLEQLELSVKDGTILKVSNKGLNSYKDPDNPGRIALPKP
| Strand | E-score |
| --- | --- |
| AGACGGAC | 0.132 |
| GCTCTCTA | -0.0274 |
| ATGAACGG | 0.151 |
| AATAGCGG | 0.251 |
| CCGCGGAG | 0.365 |
| CTCCAGAC | -0.141 |
| CGGCACGC | 0.402 |
| ACTTCACG | 0.0762 |
| CCCCCGCG | 0.411 |
| AAGAGTCA | -0.273 |
| CTAGCGGA | 0.16 |
| ATAACTTC | -0.144 |
| ATGTTGTG | -0.102 |
| AGGGGGGG | -0.236 |
| ATGTTGGC | 0.0592 |
| TACACTAA | -0.11 |
| TAGGCTGA | -0.095 |
| CTTAGCGC | 0.276 |
| CTGACGGA | 0.12 |
| AAACGGTA | 0.19 |
| TAGCAATA | -0.173 |
| CATCTTGG | -0.293 |

Block 5 — target: CCNA1, cyclin fold, Cln2 fusion (human); technique: yeast growth competition, sequencing; matrix: yeast; setting: weak parent motif; reference: not given; reading: higher = stronger binding
Starting sequence: PKN2 docking peptide (human); VSAVRKLDFSDTM
| Change | normalised enrichment score |
| --- | --- |
| T12N | 0.951 |
| S10W | 0.639 |
| D8I | 0.105 |
| S2Q | 1.03 |
| S2E | 0.012 |
| D11P | 0.73 |
| V4C | 1.61 |
| R5D | 0.0107 |
| K6H | 0.849 |
| K6V | 0.325 |
| F9K | 0.311 |
| R5E | 0.119 |
| S10A | 0.904 |
| V4S | 1.21 |
| T12A | 0.999 |
| V4H | 0.617 |
| D11Y | 0.564 |
| D8M | -0.222 |

Block 6 — technique: DHFR PCA, deep sequencing; matrix: yeast; together with: (+)-ABA 58 µM; reference: wild-type fitted maximum; reading: higher = stronger binding
Target: ABI1, truncated, D143A, DHFR fusion (Arabidopsis thaliana)
Setting: methotrexate growth selection, single substitutions
Starting sequence: PYL1, truncated, DHFR fusion (Arabidopsis thaliana); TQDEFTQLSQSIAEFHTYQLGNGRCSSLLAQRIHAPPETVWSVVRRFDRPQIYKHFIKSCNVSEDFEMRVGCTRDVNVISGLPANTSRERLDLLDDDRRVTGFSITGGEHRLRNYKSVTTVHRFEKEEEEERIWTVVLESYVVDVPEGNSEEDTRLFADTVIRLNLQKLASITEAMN
| Change | relative binding score |
| --- | --- |
| G71C | 16.8% |
| S171R | 84.8% |
| E152N | 76.2% |
| Y141Q | -4.6% |
| N149I | 35.3% |
| R46K | 73.8% |
| V62M | 76.6% |
| T73H | 82.5% |
| K126Y | 94.6% |
| K116E | 50.7% |
| E174W | 36.6% |
| F15M | 64.2% |
| S80A | 22.3% |
| V76Q | 4.51% |

Single results of other studies
| Molecule | target | assay | system | conditions | scale | quantity | value |
| --- | --- | --- | --- | --- | --- | --- | --- |
| PhoQ, residues 284 288 289 292 302 303 SLANKL | PhoP, residues 12 14 15 18 19 NMSFL (Escherichia coli, UniProt P23836) | Sort-seq, refers to: YFP reporter | E. coli | PhoQ-PhoP variant library, together with: 10 µM Mg2+ | reference: high Mg2+ state, higher = stronger signaling | fold induction | 5.81 |

For quick reference, copied from above (block 1):
| Strand | E-score |
| --- | --- |
| CCAGGGAA | -0.253 |
| CCTTAACC | -0.138 |
| AATTCTTG | 0.197 |
| GTCCTACA | -0.00077 |
| GGTCCGTA | -0.195 |
| CTGAGAAA | -0.0869 |
| CTGATTAC | 0.0839 |
| CTGCGGTA | -0.00772 |
| TAGGACCA | -0.0717 |
| CAGCTAAC | -0.117 |
| GCTTATCA | 0.0398 |
| CTGTGATA | 0.139 |
| GGCATGAC | -0.185 |
| GACGCTGC | -0.261 |
| AGGCCTAG | -0.143 |
